Assay results gathered from unrelated publications.
Every numbered part comes from another study and shows a few of its results, in no order.
Chain of UniProt O75914 (whole entry, looked up): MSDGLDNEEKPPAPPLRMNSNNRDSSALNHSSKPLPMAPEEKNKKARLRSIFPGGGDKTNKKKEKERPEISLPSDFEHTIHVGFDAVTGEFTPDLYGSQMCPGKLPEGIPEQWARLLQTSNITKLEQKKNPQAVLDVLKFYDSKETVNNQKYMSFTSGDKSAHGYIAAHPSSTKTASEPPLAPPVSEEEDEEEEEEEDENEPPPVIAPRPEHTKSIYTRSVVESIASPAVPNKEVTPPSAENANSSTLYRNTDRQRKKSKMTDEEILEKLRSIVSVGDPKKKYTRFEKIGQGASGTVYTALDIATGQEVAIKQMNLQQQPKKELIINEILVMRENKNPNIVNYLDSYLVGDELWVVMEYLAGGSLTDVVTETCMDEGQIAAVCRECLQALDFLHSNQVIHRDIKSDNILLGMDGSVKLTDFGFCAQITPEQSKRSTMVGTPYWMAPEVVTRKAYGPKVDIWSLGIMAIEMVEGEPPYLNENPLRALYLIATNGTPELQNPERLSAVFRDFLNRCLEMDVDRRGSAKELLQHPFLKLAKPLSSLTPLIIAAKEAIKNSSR
Chain of UniProt Q8WXR4 (whole entry, looked up): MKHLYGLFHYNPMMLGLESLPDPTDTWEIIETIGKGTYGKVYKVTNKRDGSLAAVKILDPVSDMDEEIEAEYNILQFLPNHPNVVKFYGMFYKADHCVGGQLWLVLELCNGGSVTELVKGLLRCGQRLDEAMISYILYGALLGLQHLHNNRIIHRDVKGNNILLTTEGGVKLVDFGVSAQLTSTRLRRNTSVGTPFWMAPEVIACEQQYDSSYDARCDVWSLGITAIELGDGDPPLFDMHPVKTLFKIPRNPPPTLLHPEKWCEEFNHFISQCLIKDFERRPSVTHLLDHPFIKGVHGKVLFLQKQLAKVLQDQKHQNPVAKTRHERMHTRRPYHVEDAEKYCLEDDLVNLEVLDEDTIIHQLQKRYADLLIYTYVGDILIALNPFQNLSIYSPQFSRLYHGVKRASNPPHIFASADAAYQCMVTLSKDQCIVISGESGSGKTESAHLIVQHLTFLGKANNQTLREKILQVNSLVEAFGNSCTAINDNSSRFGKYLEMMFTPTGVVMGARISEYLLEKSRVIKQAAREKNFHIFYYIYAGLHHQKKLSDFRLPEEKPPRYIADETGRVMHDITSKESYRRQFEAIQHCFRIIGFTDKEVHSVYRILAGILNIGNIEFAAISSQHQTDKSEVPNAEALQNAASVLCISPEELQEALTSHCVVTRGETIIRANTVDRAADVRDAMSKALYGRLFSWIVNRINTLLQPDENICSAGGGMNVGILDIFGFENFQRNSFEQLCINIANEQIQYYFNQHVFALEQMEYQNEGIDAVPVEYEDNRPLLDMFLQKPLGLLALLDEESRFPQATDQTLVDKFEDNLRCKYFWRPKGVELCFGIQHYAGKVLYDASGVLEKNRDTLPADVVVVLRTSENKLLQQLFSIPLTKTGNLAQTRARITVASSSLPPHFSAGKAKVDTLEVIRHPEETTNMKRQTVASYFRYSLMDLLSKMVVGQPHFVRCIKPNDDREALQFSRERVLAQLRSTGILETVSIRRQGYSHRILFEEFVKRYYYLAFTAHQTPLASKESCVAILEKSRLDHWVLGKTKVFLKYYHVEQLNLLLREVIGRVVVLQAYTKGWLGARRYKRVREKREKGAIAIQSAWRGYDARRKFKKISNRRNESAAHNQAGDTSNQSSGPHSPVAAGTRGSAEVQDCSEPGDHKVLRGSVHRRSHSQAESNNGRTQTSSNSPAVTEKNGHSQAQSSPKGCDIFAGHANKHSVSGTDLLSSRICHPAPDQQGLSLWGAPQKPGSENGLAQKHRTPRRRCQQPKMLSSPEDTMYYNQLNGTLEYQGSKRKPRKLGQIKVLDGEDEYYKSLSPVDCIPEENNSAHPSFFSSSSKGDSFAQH
Chain of UniProt Q15759 (whole entry, looked up): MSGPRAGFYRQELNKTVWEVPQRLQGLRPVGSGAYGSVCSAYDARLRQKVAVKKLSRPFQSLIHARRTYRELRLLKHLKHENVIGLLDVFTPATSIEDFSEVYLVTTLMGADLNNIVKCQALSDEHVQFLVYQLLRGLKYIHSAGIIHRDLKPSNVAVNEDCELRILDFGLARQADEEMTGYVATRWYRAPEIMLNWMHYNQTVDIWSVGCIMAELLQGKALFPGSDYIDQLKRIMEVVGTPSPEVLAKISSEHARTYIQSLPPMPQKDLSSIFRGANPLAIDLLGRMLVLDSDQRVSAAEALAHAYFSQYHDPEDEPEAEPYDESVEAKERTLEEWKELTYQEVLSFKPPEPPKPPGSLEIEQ
Chain of UniProt P08912 (whole entry, looked up): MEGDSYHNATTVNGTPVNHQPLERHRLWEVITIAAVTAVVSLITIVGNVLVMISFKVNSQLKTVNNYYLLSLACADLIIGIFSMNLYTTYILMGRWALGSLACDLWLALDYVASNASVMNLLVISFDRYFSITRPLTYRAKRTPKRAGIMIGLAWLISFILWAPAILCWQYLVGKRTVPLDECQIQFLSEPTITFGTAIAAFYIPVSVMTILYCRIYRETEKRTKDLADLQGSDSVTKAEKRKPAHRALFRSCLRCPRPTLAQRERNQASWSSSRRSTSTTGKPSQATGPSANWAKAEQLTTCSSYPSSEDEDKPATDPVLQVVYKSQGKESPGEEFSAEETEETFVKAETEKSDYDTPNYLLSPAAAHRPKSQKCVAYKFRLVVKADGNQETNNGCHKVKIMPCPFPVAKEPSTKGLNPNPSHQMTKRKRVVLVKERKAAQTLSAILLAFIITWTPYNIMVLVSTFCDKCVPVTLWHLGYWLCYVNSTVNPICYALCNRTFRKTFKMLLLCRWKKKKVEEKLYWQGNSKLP
Chain of UniProt P42681 (whole entry, looked up): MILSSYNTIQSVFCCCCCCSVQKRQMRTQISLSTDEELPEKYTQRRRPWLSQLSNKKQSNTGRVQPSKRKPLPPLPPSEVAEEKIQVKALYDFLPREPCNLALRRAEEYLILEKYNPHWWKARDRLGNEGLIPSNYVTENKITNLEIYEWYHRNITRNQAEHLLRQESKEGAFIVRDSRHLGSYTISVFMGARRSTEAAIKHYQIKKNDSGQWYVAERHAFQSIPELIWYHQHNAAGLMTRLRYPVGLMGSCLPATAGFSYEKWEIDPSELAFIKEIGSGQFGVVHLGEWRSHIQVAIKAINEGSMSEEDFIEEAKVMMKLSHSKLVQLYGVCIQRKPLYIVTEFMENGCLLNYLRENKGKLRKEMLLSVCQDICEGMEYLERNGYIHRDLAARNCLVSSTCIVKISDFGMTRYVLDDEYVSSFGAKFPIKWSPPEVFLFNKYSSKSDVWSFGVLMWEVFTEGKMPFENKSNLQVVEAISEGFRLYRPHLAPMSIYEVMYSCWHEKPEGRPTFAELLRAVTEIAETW
Chain of UniProt Q86UE8 (whole entry, looked up): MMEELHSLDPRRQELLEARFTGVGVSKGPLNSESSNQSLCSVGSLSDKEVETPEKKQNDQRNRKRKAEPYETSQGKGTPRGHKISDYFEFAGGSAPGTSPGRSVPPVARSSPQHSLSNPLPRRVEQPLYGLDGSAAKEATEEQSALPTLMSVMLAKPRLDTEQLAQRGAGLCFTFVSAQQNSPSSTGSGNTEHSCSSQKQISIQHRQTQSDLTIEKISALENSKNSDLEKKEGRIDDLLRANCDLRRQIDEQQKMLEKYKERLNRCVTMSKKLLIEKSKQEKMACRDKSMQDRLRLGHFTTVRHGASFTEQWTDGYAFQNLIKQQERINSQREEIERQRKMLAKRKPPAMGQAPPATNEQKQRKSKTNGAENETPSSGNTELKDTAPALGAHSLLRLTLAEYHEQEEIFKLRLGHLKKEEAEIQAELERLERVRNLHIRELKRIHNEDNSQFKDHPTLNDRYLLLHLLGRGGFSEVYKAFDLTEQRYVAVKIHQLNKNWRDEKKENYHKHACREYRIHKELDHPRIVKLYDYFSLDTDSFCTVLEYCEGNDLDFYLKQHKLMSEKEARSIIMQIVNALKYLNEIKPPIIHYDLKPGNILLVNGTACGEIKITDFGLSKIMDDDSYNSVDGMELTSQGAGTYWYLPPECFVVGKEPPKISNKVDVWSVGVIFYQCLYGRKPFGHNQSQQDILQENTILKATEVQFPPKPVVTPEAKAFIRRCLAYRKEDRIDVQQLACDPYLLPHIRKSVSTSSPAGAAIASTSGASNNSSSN
Chain of UniProt P50750 (whole entry, looked up): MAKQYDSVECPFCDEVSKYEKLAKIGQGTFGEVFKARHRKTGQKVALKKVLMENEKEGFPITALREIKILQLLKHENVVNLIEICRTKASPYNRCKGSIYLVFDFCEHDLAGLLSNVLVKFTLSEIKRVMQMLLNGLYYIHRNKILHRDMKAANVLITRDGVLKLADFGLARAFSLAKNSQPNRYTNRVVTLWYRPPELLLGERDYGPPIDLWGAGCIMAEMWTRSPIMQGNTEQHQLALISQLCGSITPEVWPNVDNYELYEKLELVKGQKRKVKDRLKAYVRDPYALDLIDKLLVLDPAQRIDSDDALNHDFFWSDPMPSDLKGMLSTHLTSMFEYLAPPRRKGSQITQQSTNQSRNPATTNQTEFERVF

Sample 1 — technique: universal PBM; molecule type: double-stranded DNA, one strand shown; medium: in vitro; concentration: not given; reading: higher = stronger binding
Target: Sal-like protein 4, full length isoform B (SALL4, Homo sapiens, UniProt Q9UJQ4-2, residues 1-616)
Notes: 8-mer, flanks averaged, mean of replicates
Residues (chain): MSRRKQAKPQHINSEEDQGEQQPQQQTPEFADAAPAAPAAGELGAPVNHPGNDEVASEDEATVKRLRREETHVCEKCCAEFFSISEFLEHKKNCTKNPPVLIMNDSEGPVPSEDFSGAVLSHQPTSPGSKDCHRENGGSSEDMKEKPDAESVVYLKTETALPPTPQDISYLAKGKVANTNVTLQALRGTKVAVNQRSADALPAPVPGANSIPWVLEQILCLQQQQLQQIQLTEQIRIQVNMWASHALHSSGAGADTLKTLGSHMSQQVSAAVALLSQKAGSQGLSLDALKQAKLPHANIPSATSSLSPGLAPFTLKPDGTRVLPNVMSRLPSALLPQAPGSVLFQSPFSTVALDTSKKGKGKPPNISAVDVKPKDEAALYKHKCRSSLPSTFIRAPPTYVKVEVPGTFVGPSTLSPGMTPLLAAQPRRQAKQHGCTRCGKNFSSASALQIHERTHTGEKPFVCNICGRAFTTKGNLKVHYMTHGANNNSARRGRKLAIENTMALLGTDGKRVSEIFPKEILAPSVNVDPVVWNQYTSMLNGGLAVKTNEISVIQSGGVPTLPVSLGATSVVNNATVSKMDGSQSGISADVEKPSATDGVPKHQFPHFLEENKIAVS
| Oligonucleotide | E-score |
| --- | --- |
| TATCCCGA | -0.0593 |
| CAGCGATG | -0.163 |
| ACACTCCG | -0.164 |
| TCGAGCCA | -0.0961 |
| CTGGCACC | -0.183 |
| ATATCGAA | 0.264 |
| AAGTGGCG | 0.0602 |
| AGAAGCCG | -0.227 |

Sample 2 — read-out: enzyme activity; mode: inhibitor; concentration: 0.5 µM; baseline: control
SMILES: CC(C)[C@H](CO)Nc1nc(Nc2cccc(Cl)c2)c2ncn(C(C)C)c2n1
| target | remaining activity [%] |
| --- | --- |
| CAMK4 (Homo sapiens, UniProt Q16566) | 95.3 |
| PLK3 (Homo sapiens, UniProt Q9H4B4) | 86.4 |
| CDC42BPB (Homo sapiens, UniProt Q9Y5S2) | 108 |
| Cyclin-dependent kinase 9, with cyclin K (CDK9, Homo sapiens, UniProt P50750) | 63.6 |
| DDR2 (Homo sapiens, UniProt Q16832) | 99.1 |
| CLK3 (Homo sapiens, UniProt P49761) | 89.7 |
| Myosin-IIIb (MYO3B, Homo sapiens, UniProt Q8WXR4) | 94.2 |
| MAP2K1 (Homo sapiens, UniProt Q02750) | 96 |
| DCLK2 (Homo sapiens, UniProt Q8N568) | 100 |
| MARK4 (Homo sapiens, UniProt Q96L34) | 89.8 |
| PAK3 (Homo sapiens, UniProt O75914) | 94.2 |
| MAPK11 (Homo sapiens, UniProt Q15759) | 109 |
| TXK (Homo sapiens, UniProt P42681) | 54.1 |
| TLK2 (Homo sapiens, UniProt Q86UE8) | 94.7 |

Sample 3 — technique: RNA Bind-n-Seq; molecule type: RNA; medium: in vitro; concentration: 1 µM; notes: whole 134-nt RNA, ends assumed; with: 150 mM KCl; baseline: input library; reading: higher = stronger binding
Target: Ras GTPase-activating protein-binding protein 1, C-terminal RGG region (G3BP1, Homo sapiens, UniProt Q13283)
Chain of UniProt Q13283 (whole entry, looked up): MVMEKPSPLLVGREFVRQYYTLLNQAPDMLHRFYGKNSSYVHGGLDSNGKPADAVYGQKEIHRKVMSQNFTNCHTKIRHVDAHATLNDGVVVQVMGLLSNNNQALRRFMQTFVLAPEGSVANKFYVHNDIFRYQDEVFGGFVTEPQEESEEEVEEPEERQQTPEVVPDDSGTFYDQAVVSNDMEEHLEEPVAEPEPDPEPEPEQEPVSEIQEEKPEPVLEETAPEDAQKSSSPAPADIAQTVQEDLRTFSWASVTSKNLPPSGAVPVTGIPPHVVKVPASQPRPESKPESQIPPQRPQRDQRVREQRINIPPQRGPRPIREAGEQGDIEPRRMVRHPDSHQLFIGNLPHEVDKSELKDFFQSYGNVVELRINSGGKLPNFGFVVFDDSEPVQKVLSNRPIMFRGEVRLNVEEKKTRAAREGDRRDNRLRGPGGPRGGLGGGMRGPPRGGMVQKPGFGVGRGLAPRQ
All sequences stand within: GGGAGUUCUACAGUCCGACGAUC … UGGAAUUCUCGGGUGUCAAGG
| Oligonucleotide | log2 enrichment |
| --- | --- |
| UAGCCAAGAGUCGAAGCUAAACCAGAAGUUCAAUCUCAGCCACCUCGUGUGCGUGAACAACGACCUAGAGAACGACCUGGUUUUCCUCCU | -0.629 |
| UCAAGUCCUGUGCUACACAUCGUAUGUACCGAAUCGGUGGUUUUUGGUUUUUGGAAAGUAUUAUGUUACGCCGUUCGGAUCUGCACUUCC | -1.05 |
| UCCUGUGCUACACAUCGUAUGUACCGAAUCGGAAAAAAGGGGAAAAAAGGGAAAAAAGGAAAGUAUUAUGUUACGCCGUUCGGAUCUGCA | -1.31 |
| AAGUCCUGUGCUACACAUCGUAUGUACCGAAUCGGGAGGGAAAGGGUUUUUUUGGGAAAGUAUUAUGUUACGCCGUUCGGAUCUGCACUU | 0.562 |
| UGGCCCUGGUGGCAUGCGGGGAGGAAGAGGUGGCCUCAUGGAUCGUGGUGGUCCCGCUGGAAUGUUCAGAGGUGGCCGUGGUGGAGACAG | 2.1 |
| GUCCUGUGCUACACAUCGUAUGUACCGAAUCGGGUUUUUGGGAAAAAGGGAAAAAGGGAAAGUAUUAUGUUACGCCGUUCGGAUCUGCAC | -0.837 |
| GCAGGAAGUAAAAACAAAUGGAAAUGCUUCGGAUAGUGGCAGGGGUGGGGGUUGCUAAGGAAAGGGUGGGAUGCGAGUGGGUAAAGAGUU | 1.91 |
| ACCAUGCAGGUGGGCAAAUUUGGGAAGUGGGGCAAGGGGGGGAUAGGGAGGGGGGUAACACUUUGGGAACAGGUGGUCCCAGGUCGUUUC | -1.05 |

Sample 4 — read-out: binding; technique: radioligand binding; concentration: 10 µM
Structure (SMILES): CCC(=O)N[C@H]1CC[C@@H](C(=O)N(C)c2ccc(-c3nc4ccccc4o3)cc2)C1
| target | inhibition [%] |
| --- | --- |
| DRD4 (Homo sapiens, UniProt P21917) | 11.2 |
| CHRM5 (Homo sapiens, UniProt P08912) | -0.421 |
| HTR2B (Homo sapiens, UniProt P41595) | 4.55 |

For quick reference, copied from above (sample 1):
| Oligonucleotide | E-score |
| --- | --- |
| TATCCCGA | -0.0593 |
| CAGCGATG | -0.163 |
| ACACTCCG | -0.164 |
